Assay results pooled from the literature.
Numbered parts are unrelated; each lists some results of a single study. Positions count from the first letter of the parent shown.

Series 1
Target: Protein C-ets-1 (ETS1, Homo sapiens, UniProt P14921, residues 1-441, full length assumed)
Method: protein-binding microarray
Form: double-stranded DNA, one strand shown
Matrix: in vitro
Concentration: not given
Setting: k-mer, scored over probes, only values ≥0.25
Reading: higher = stronger binding
Residues (chain): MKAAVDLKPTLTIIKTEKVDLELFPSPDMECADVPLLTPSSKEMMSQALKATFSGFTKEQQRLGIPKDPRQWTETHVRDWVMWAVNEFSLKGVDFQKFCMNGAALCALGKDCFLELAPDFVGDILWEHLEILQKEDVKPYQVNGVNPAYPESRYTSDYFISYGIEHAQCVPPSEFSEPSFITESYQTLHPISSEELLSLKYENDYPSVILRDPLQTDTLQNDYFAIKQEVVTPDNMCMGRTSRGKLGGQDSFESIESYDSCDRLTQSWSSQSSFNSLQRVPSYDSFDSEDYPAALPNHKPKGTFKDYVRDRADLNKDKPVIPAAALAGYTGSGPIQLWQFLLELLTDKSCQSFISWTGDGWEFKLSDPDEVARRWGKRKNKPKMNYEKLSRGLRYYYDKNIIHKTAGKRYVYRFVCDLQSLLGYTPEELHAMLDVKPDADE
| Oligonucleotide | E-score |
| --- | --- |
| AGGAAGCA | 0.44 |
| GATCGGAA | 0.345 |
| ATGGGAAG | 0.371 |
| CAACAGGA | 0.403 |
| GGGAAGTA | 0.431 |

Series 2
Target: CCNF, cyclin fold, Cln2 fusion (human)
Method: yeast growth competition, sequencing
Matrix: yeast
Setting: strong parent motif
Relative to: not given
Reading: higher = stronger binding
Starting sequence: WEE1 docking peptide (human); HKTFRKLRLFDTP; partner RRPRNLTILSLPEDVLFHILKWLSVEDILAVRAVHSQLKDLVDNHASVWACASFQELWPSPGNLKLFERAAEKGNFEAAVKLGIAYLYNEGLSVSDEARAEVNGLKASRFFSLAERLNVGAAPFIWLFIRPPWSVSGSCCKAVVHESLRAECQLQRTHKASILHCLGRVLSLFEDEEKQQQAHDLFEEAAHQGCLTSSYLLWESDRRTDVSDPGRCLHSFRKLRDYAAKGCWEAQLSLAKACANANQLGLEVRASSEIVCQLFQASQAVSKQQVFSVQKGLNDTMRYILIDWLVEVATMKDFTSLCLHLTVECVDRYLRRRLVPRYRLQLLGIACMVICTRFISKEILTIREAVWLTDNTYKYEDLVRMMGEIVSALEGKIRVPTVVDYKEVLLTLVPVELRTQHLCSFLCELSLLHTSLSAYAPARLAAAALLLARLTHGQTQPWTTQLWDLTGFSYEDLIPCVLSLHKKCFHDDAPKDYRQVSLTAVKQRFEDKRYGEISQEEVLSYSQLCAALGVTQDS
| Change | normalised enrichment score |
| --- | --- |
| HKTTRKLRLFDTP [F4T] | 1.84 |
| HKTFRKLRLFPTP [D11P] | 2.32 |
| HKTFRKLRLFDTL [P13L] | 1.46 |

Series 3
Target: Histone acetyltransferase KAT6A, winged helix 2, GST fusion (KAT6A, Homo sapiens, UniProt Q92794, residues 85-181)
Method: protein binding microarray
Form: double-stranded DNA, one strand shown
Matrix: in vitro
Concentration: not given
Setting: 8-mer, flanks averaged, mean of 2 arrays, mostly near background
Relative to: not given
Reading: higher = stronger binding
Residues (chain): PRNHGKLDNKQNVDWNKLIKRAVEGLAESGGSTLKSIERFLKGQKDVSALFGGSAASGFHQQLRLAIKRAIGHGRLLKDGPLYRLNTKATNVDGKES
| Oligonucleotide | E-score |
| --- | --- |
| CCAAAGTA | -0.0305 |
| GGTAACTA | 0.00907 |
| TCTGGTCA | -0.0016 |
| AATATGCC | -0.0561 |
| CAACGACC | 0.0158 |
| CAGGGCCA | -0.0539 |

Other studies, line by line
| Molecule | target | assay | system | setting | how to read | quantity | result |
| --- | --- | --- | --- | --- | --- | --- | --- |
| PhoQ, residues 284 288 289 292 302 303 TVTVVA | PhoP, residues 12 14 15 18 19 LHSVW (Escherichia coli, UniProt P23836) | Sort-seq, measured: YFP reporter | E. coli | PhoQ-PhoP variant library, together with: 10 µM Mg2+ | relative to: high Mg2+ state, higher = stronger signaling | fold induction | 7.68 |
